Assay results collected from several papers.
Values joined by “and” are separate records of one study, mostly repeats; a detail may differ. ± marks the error that the study gave.

`N#Cc1ccc(C(c2ccc(C#N)cc2)n2cncn2)cc1` gave a plasma concentration of 20.2 ± 1.83 ng/mL (human patients, plasma; oral, 2.5 mg daily, day of surgery).
For `O=C(O)CCCCCCCCCCCCCCCCC(=O)O`, the plasma concentration was 89.4 ± 6 nM (healthy human volunteers, plasma; dose not given, 0 h, baseline phase, no drug).
`Cc1cc(N(CCOS(C)(=O)=O)CCOS(C)(=O)=O)ccc1C=O` gave a plasma concentration of 4.7 ng/mL (human, plasma; intravenous, 12 mg/m^2, 5 min).
`O=C(O)CCCCCCCCCCCCC(=O)O` gave a plasma concentration of 116 ± 22 nM (healthy human volunteers, plasma; dose not given, 0 h, baseline phase, no drug).
The plasma concentration of `Cn1c(=O)c2c(ncn2C)n(C)c1=O` is reported as 172000 nM (human, both sexes, plasma; median).
For `O=C(Nc1cnccc1Cl)N1CCN(Cc2ccc3c(c2)OC(F)(F)O3)CC1`, the plasma concentration was 1.01 ng/mL (human, plasma; 2.5 mg single dose, 24 h post dose day 1).
With `CC1(C)CCC(CN2CCN(c3ccc(C(=O)NS(=O)(=O)c4ccc(NCC5CCOCC5)c([N+](=O)[O-])c4)c(Oc4cnc5[nH]ccc5c4)c3)CC2)=C(c2ccc(Cl)cc2)C1` the plasma concentration was 1630 ng/mL (UPLC-MS/MS; human patients, non-responders; oral, dose not given, 6 h post-dose, steady state, median).
`Cn1c(=O)c2[nH]cnc2n(C)c1=O` gave a plasma concentration of 40400 nM (human, both sexes, plasma; mean).
`COc1cc2c(cc1OC)CN(CCc1ccc(NC(=O)c3cc(OC)c(OC)cc3NC(=O)c3cnc4ccccc4c3)cc1)CC2` has a plasma concentration of 2810 nM and 1910 nM and 2110 nM (human, plasma; intravenous infusion, 5.9 mg/kg, 60 min).
With `C[C@H](CCC(=O)NCCS(=O)(=O)O)[C@H]1CC[C@H]2[C@@H]3CC[C@@H]4C[C@H](OS(=O)(=O)O)CC[C@]4(C)[C@H]3CC[C@]12C` the plasma concentration was 122 ± 41 nM (healthy human volunteers, plasma; dose not given, 0 h, control phase, probe drugs alone).
`Cn1c(=O)[nH]c2nc[nH]c2c1=O` gave a plasma concentration of 13700 nM (human, both sexes, plasma; mean).
With `CCCN(CCC)S(=O)(=O)c1ccc(C(=O)O)cc1` the plasma concentration was 379000 nM (healthy male humans, plasma; oral, dose not given, 2 h, 1 h before cocktail).
With `CN1CCN(c2ccc(OC(F)(F)F)c(Nc3ncc4c(n3)-c3c(c(C(N)=O)nn3CCO)CC4)c2)CC1` the plasma concentration was 69.5 ng/mL and 73.2 ng/mL and 94.2 ng/mL and 41.6 ng/mL (LC-MS/MS; human, plasma; oral, 12 mg/m2, 8 h post-dose).
`C[C@H](CCC(=O)O)[C@H]1CC[C@H]2[C@@H]3[C@H](O)C[C@@H]4C[C@H](O)CC[C@]4(C)[C@H]3CC[C@]12C` has a plasma concentration of 1060 ± 330 nM (healthy human volunteers, plasma; oral, dose not given, 0 h, control phase, probe drugs alone).
For `CO[C@H]1/C=C/O[C@@]2(C)Oc3c(C)c(O)c4c(O)c(c(/C=N/N5CCN(C)CC5)c(O)c4c3C2=O)NC(=O)/C(C)=C\C=C\[C@H](C)[C@H](O)[C@@H](C)[C@@H](O)[C@@H](C)[C@H](OC(C)=O)[C@@H]1C`, the plasma concentration was 6720 ng/mL (healthy male humans, plasma; oral, dose not given, 4 h, with cocktail).
`Cn1cnc2[nH]c(=O)[nH]c(=O)c21` has a plasma concentration of 6490 nM (human, both sexes, plasma; mean).
`COCCCOc1ccnc(C[S+]([O-])c2nc3ccccc3[nH]2)c1C` (stereo not drawn) has a plasma concentration of 325 ng/mL (healthy male humans, plasma; oral, 40 mg/day for -4 days, 2 h).
`O=C(O)[C@H]1O[C@@H](Oc2ccc(/C=C\c3cc(O)cc(O)c3)cc2)[C@H](O)[C@@H](O)[C@@H]1O` has a plasma concentration of 436 nM (human, plasma; median).
`C[C@H](CCC(=O)NCC(=O)O)[C@H]1CC[C@H]2[C@@H]3CC[C@@H]4C[C@H](O)CC[C@]4(C)[C@H]3CC[C@]12C` has a plasma concentration of 21 ± 6.3 nM (healthy human volunteers, plasma; dose not given, 0 h, control phase, probe drugs alone).
The plasma concentration of `O=C(O)[C@H]1O[C@@H](Oc2cc(O)cc(/C=C/c3ccc(O)cc3)c2)[C@H](O)[C@@H](O)[C@@H]1O` is reported as 781 nM (human, plasma; median).
The plasma concentration of `C[C@H](CCC(=O)NCC(=O)O)[C@H]1CC[C@H]2[C@@H]3CC[C@@H]4C[C@H](OS(=O)(=O)O)CC[C@]4(C)[C@H]3C[C@H](O)[C@]12C` is reported as 265 ± 100 nM (healthy human volunteers, plasma; dose not given, 0 h, control phase, probe drugs alone).
With `C[C@H]1[C@H]2N(C(=O)CN(C)N2C(=O)NCc2ccccc2)[C@@H](Cc2ccc(OP(=O)(O)O)cc2)C(=O)N1Cc1cccc2cccnc12` the plasma concentration was less than 0.1 ng/mL (human, plasma; intravenous, dose not given, before administration).
`O=C(O)CCCCCCCCCCCCCCC(=O)O` gave a plasma concentration of 119 ± 15 nM (healthy human volunteers, plasma; oral, dose not given, 0 h, control phase, probe drugs alone).
With `Cn1c(=O)[nH]c(=O)c2[nH]cnc21` the plasma concentration was 4310 nM (human, both sexes, plasma; median).
With `C[C@H](CCC(=O)NCC(=O)O)[C@H]1CC[C@H]2[C@@H]3[C@H](O)C[C@@H]4C[C@H](O)CC[C@]4(C)[C@H]3C[C@H](O)[C@]12C` the plasma concentration was 83.3 ± 24.3 nM (healthy human volunteers, plasma; oral, dose not given, 0 h, control phase, probe drugs alone).
With `C[C@@H](O)[C@H]1C(=O)N2C(C(=O)O)=C(SCCN=CN)C[C@H]12` the plasma concentration was 70100 nM (human; intravenous, 500 mg single, 0.25 h).
For `O=C(O)c1ccc(O)c(O[C@@H]2O[C@H](C(=O)O)[C@@H](O)[C@H](O)[C@H]2O)c1`, plasma concentration read “not detected” (human, plasma; dose not given, mean).
